Measured values pooled from the literature.
Each line is one published result; not all experiments were run side by side.
T1: DNA aptamer; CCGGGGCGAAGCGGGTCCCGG
T2: DNA aptamer; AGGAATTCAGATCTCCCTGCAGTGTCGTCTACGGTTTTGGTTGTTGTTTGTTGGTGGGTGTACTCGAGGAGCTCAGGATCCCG
T3: DNA aptamer 50 nt truncation; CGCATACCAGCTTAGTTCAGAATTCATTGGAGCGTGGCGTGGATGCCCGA
T4: DNA aptamer; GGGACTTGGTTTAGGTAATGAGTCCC
T5: DNA aptamer; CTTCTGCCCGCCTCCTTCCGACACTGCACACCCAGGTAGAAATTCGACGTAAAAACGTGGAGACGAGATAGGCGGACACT
T6: DNA aptamer 25 nt core; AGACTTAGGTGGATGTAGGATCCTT
T7: DNA aptamer; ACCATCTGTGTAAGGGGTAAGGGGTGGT
T8: DNA aptamer; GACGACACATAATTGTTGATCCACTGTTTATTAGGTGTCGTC
T9: DNA aptamer; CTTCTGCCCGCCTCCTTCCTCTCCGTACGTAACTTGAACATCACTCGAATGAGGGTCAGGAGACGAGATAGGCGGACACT
T10: DNA aptamer; CGGGGTGAAACGGGTCCCG
T11: DNA aptamer; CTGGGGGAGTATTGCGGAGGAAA

SMILES	target	test	conditions	Kd [µM]
C[C@@H]1Cc2c(Cl)cc(C(=O)N[C@@H](Cc3ccccc3)C(=O)O)c(O)c2C(=O)O1	T1, DNA aptamer	ITC	pH 7.4, 23 °C, reverse titration; single-site fit, with: 10 mM MgCl2	3.4
O=[N+]([O-])N=C1NCCN1Cc1ccc(Cl)nc1	T2, DNA aptamer	differential pulse voltammetry	30 min, pH 7.5, Na+ 150 mM, Mg2+ 2 mM	0.0201
NC[C@H]1O[C@H](O[C@H]2[C@H](O)[C@@H](O[C@H]3O[C@H](CO)[C@@H](O)[C@H](N)[C@H]3O)[C@H](N)C[C@@H]2N)[C@H](O)[C@@H](O)[C@@H]1O	T3, DNA aptamer 50 nt truncation	MST	25 °C, NaCl 100 mM	400
NC[C@H]1O[C@H](O[C@H]2[C@H](O)[C@@H](O[C@H]3O[C@H](CO)[C@@H](O)[C@H](N)[C@H]3O)[C@H](N)C[C@@H]2N)[C@H](N)C[C@@H]1O	T4, DNA aptamer	intermittent pulse amperometry	NaCl 100 mM, apparent	5
CC(C)=CCC[C@](C)(O[C@@H]1O[C@H](CO[C@@H]2O[C@H](CO)[C@@H](O)[C@H](O)[C@H]2O)[C@@H](O)[C@H](O)[C@H]1O)[C@H]1CC[C@]2(C)[C@@H]1[C@H](O)C[C@@H]1[C@@]3(C)CC[C@H](O[C@@H]4O[C@H](CO)[C@@H](O)[C@H](O)[C@H]4O[C@@H]4O[C@H](CO)[C@@H](O)[C@H](O)[C@H]4O)C(C)(C)[C@@H]3CC[C@]12C	T5, DNA aptamer	fluorescence of eluted aptamer	pH 8.5, room temperature	12.5
CC(=O)N[C@H]1C(O)O[C@H](CO)[C@H](O)[C@@H]1O (stereo partly drawn)	T6, DNA aptamer 25 nt core	SPR	–	0.0598
COc1cccc2c1C(=O)c1c(O)c3c(c(O)c1C2=O)C[C@@](O)([C@@H](O)CO)C[C@@H]3O[C@H]1C[C@H](N)[C@H](O)[C@H](C)O1	T7, DNA aptamer	SWV	pH 7.4, apparent	2.56
Cn1cnc2c(ncn2[C@@H]2O[C@H](CO)[C@@H](O)[C@H]2O)c1=N	T8, DNA aptamer	competitor, ThT fluorescence displacement	apparent, with: ThT 16 µM	1.9
COc1cccc2c1C(=O)c1c(O)c3c(c(O)c1C2=O)C[C@@](O)(C(=O)CO)C[C@@H]3O[C@H]1C[C@H](N)[C@H](O)[C@H](C)O1	T7, DNA aptamer	SWV	pH 7.4, apparent	1.51
CC(C)=CCC[C@](C)(O[C@@H]1O[C@H](CO)[C@@H](O)[C@H](O)[C@H]1O)[C@H]1CC[C@]2(C)[C@@H]1[C@H](O)C[C@@H]1[C@@]3(C)CC[C@H](O)C(C)(C)[C@@H]3[C@@H](O[C@@H]3O[C@H](CO)[C@@H](O)[C@H](O)[C@H]3O[C@@H]3O[C@@H](C)[C@H](O)[C@@H](O)[C@H]3O)C[C@]12C	T9, DNA aptamer	fluorescence of eluted aptamer	pH 8.5, room temperature	16.9
C[C@@H]1Cc2ccc(C(=O)N[C@@H](Cc3ccccc3)C(=O)O)c(O)c2C(=O)O1	T10, DNA aptamer	ITC	pH 7.4, 23 °C, reverse titration; single-site fit, with: 10 mM MgCl2	74.1
Nc1ncnc2c1ncn2[C@@H]1O[C@H](COP(=O)(O)OP(=O)(O)OP(=O)(O)O)[C@@H](O)[C@H]1O	T11, DNA aptamer	square wave voltammetry	apparent, electrochemical aptamer sensor, assumed saturation	206

Repeated from above:
SMILES	target	test	conditions	Kd [µM]
C[C@@H]1Cc2ccc(C(=O)N[C@@H](Cc3ccccc3)C(=O)O)c(O)c2C(=O)O1	T10, DNA aptamer	ITC	pH 7.4, 23 °C, reverse titration; single-site fit, with: 10 mM MgCl2	74.1
